Published values from different studies.
Each numbered part is a random draw from the data of one study; scales do not carry over between parts.

Set 1
Target: Sal-like protein 4, full length isoform B (SALL4, Homo sapiens, UniProt Q9UJQ4-2, residues 1-616)
Method: universal PBM
Form: double-stranded DNA, one strand shown
Sample: in vitro
Concentration: not given
Notes: 8-mer, flanks averaged, mean of replicates
Reading: higher = stronger binding
| Oligonucleotide | E-score |
| --- | --- |
| GCTTATCA | 0.0398 |
| AACTGACC | -0.0582 |
| ATAACATC | 0.225 |
| GCGATCAC | -0.189 |
| CCCTTTTA | 0.0911 |
| ACCCGTAT | -0.0847 |
| AATTAGCG | 0.0568 |
| AGCTATGA | 0.164 |
| AGGCTTAT | 0.139 |
| AACAACCT | -0.013 |
| CGATAAGC | -0.136 |
| ATGGGTGA | -0.043 |
| ACTACGTG | -0.163 |
| CGAGACTA | 0.0783 |
| AGCTTCCC | -0.19 |
| CTGCGGTA | -0.00772 |

Set 2
Target: Protein C-ets-1 (ETS1, Homo sapiens, UniProt P14921, residues 1-441, K379A, full length assumed)
Method: protein-binding microarray
Form: double-stranded DNA, one strand shown
Sample: in vitro
Concentration: not given
Notes: k-mer, scored over probes, only values ≥0.25
Reading: higher = stronger binding
Residues (chain): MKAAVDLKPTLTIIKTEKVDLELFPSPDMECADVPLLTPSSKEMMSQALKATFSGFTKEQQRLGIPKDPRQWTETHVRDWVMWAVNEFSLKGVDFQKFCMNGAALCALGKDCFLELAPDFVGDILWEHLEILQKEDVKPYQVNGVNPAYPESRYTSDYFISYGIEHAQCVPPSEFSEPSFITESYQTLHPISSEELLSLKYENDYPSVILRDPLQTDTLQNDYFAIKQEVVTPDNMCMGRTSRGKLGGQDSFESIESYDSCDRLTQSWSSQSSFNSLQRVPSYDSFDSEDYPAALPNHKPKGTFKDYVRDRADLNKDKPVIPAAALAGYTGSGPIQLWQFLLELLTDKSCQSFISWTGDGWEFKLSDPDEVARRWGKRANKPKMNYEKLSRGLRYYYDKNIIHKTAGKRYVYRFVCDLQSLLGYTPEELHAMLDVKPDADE
| Oligonucleotide | E-score |
| --- | --- |
| AGCGGAAG | 0.311 |
| ATAATTTA | 0.347 |
| AACATCCG | 0.334 |
| ATATCAAC | 0.275 |
| ACCTGTCG | 0.286 |
| ATATGTAC | 0.283 |
| CCCGGCGG | 0.311 |
| TGCCGGCA | 0.381 |
| CACCGGTG | 0.479 |
| CGCTTCCG | 0.286 |
| CCCGGTGC | 0.329 |
| CCCCGCCG | 0.327 |
| ACAGTAAT | 0.273 |
| GTGTCGGA | 0.3 |
| CGCCCGCC | 0.318 |
| ACCGTCGT | 0.298 |
| CCGGACGC | 0.272 |
| CCGCCCCA | 0.417 |
| GTAGAATA | 0.271 |
| GCCGGGAC | 0.27 |
| ACCGGAGG | 0.358 |
| CCGGAACA | 0.4 |
| CGGATATC | 0.338 |
| CCCGCCCA | 0.348 |
| CATCCGCC | 0.304 |

Set 3
Target: Ras GTPase-activating protein-binding protein 1, full length (G3BP1, Homo sapiens, UniProt Q13283)
UniProt Q13283, sequence (whole entry, looked up): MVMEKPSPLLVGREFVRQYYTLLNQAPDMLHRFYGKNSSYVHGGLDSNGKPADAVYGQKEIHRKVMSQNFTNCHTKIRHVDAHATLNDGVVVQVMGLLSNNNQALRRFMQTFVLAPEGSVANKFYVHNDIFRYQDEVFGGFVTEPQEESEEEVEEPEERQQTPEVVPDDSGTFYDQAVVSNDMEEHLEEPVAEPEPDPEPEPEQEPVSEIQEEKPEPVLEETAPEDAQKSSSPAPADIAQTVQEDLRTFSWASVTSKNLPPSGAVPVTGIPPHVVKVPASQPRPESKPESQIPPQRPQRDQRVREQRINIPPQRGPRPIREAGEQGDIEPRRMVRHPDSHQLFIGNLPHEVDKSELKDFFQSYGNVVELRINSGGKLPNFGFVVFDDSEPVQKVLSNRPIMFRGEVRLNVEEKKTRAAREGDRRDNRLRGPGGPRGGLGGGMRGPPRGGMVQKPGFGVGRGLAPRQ
Method: RNA Bind-n-Seq
Form: RNA
Sample: in vitro
Concentration: 200 nM
Notes: whole 134-nt RNA, ends assumed
With: 150 mM KCl
Reference: input library
Reading: higher = stronger binding
Shared flanks, not repeated: GGGAGUUCUACAGUCCGACGAUC … UGGAAUUCUCGGGUGUCAAGG
| Oligonucleotide | log2 enrichment |
| --- | --- |
| CACAGACAACGCGCACCCACACAGACACAGAGGGAAGGGGUUGGGAUGGGGACAGGGUGCACAGCAGGGCGGGGUAGGACCCCAGCCCCU | 1.83 |
| UAACUUUAGAGGAGGAUCUGAUGGCUAUGGCAGUGGACGUGGAUUUGGGGAUGGCUAUAAUGGGUAUGGAGGAGGACCUGGAGGUGGCAA | 0.306 |
| CACAGACAACACGCACCCACACAGACACAGAGGGAAGGGGUUGGGAGGGGGACAGGGUGCACAGCAGGGCGGGGUAGGACCCCAGCCCCU | 1.92 |
| CCUCAAGUCCUGUGCUACACAUCGUAUGUACCGAAUCGGCCGGGCCGGGCCGGAAAGUAUUAUGUUACGCCGUUCGGAUCUGCACUUCCA | -0.338 |
| UCAAGUCCUGUGCUACACAUCGUAUGUACCGAAUCGGGGAAGGGAAGGAAGGGGAAAGUAUUAUGUUACGCCGUUCGGAUCUGCACUUCC | 0.749 |
| CUCAAGUCCUGUGCUACACAUCGUAUGUACCGAAUCGGGUUGGGUUGGUUGGGGAAAGUAUUAUGUUACGCCGUUCGGAUCUGCACUUCC | 0.981 |
| AGUCCUGUGCUACACAUCGUAUGUACCGAAUCGGGGAAAAAAAGGGGUGGGGUGGGGAAAGUAUUAUGUUACGCCGUUCGGAUCUGCACU | 0.289 |
| AAGUCCUGUGCUACACAUCGUAUGUACCGAAUCGGGUGGGAAAAAAAGGGUUUGGGAAAGUAUUAUGUUACGCCGUUCGGAUCUGCACUU | 0.207 |
| ACCAUGCAGGUGGGCAUCUUUGGGAAGUGGGGCAAGGGGGGGAUAGGGAGGGGGGUAACACUUUGGGAACAGGUGGUGCCAGGUCGUUUC | 1.31 |
| UUGUUCUGGCAUAAACAUAACAUUGAGAAGUCCCUUGCUGAUCUCCCUAAUUUCACUCCCUUUCCGGAUGAGUGGACAGUGGAAGAUAAA | -0.453 |

Set 4
Target: RNA binding protein fox-1 homolog 2, RRM domain, GST-SBP tag (RBFOX2, Homo sapiens, UniProt O43251-10, residues 100-194)
Method: RNA Bind-n-Seq
Form: RNA
Sample: in vitro
Concentration: 365 nM
Notes: natural RNA segment, single round, ends assumed
Reference: no-protein control
Reading: higher = stronger binding
Shared flanks, not repeated: GGGAGUUCUACAGUCCGACGAUC … UGGAAUUCUCGGGUGCCAA
Target sequence (chain): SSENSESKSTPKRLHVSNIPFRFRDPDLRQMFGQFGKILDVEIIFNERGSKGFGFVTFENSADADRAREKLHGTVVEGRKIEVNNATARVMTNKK
| Oligonucleotide | RBNS enrichment (R) |
| --- | --- |
| CCUGGCACUGCUUGGAGGUGUGCAGAGCGGAAGCAAGUGGAGCAUCCGGGGCAUUCCUGUUGACCCAUCAGCCCCUUCUGUUCUGGCGGCAGGGGCCUUGGGGCUCCUGG | 0.505 |
| UGGGACAGGACACACCAGAGCUAAGGCCGCAUUGCUUUUGUCAAAGUCUCCUCCUCUGACUGGUUUCAGGAAAUCAAGAAGUUUGAAUCACAUACUCAUUUUACUUGAAA | 0.44 |
| AGCAGUGGAGAUGAAAUCAAGACCUUGCAAAAUGGAUACUAGGAGAUGAACAACAAUUCAACGUGCUUCUCUCAGUGCCUGGAGGAUGCAGCUCUCCACACGCAGGGACU | 0.348 |
| AGUUUAAAUGGAUUACAUUUGGUGUAUAUUGUCUUCAUUGAAAAGAUAUUGUUGGAUAUGCCACAUCAGAGUUAGCAUUGACUUAUAAAUAAAUACCAGAAUUUACCAGA | 1.08 |
| UGAGAGGUGCAAAGAGGCAGAUCUUUGCUGCCAGCCACUUCAUCCCCUCCCAGAUGUUGGACCAACACCCCUCCCUGCCACCAGGCACUGCCUGGAGGGCAGGGAGUGGG | 0.211 |
| GGUUUGAAGGAAAGUUAUUGUCACGUGGUUUGUUUUCCUCAAAAUGAAGGGAUAGGACAAAAGAGACAAUCAAAUAUGGAGCUUAGCAUAGCUAGAAUGGCAUGAUGUCA | 1.79 |
| UGGGAGACCAGGACAGAUGAGAAGGAGCAGAAGAGCCCUGUGCCCAGAAGACCCAACUGGUGCCAAGGAAUCCCAGCAUGGACAGGCAGGGACCUGUUUCCCAAGAAGAG | 1.81 |
| CCAAACAGACGCUCACAGUGGAGGCUUAUCAAGGGUUGCAUUGGGGAAGAAGCCUCUCCCUCUCUGUCAGCACCAGCUGGUAAAGGUGACUGUACAGAUGUGCAUUUUCC | 1.19 |
| GCGGUUUUGAGCUUUCUAUAAGCUAUAGCUUUGUUUAUUUCACCCGUUCACUUACUGUAUAAUUUAAAAUCAUUUAUGUAGCUGAGACACUUCUGUAUUUCAAUCAUAUC | 0.574 |
| AGGAAAGUUAGGAGAUAUUCAUCUUAAGAGAUAUCCUAUUUGGCAGUCACAUGUUACACUUGAGCAACAAUUGUCUAGGCUAGAAAUAUAGAACCACACAAUAUUUAUCA | 0.527 |
| CUUUUCCUCUUAAUACUCAGCUCUCAACACAGGCGGGUGGGCAGAGGAAGAUACCAUUCAGGAACCUGGACCAGAGGUGGUAAUAAAAGGGCUGGGUCAUUGGGCCUGCA | 2.68 |
| CUGCCUGGGACGCAUGGCUGAGUAACAGAGGGGACCACGCAGCCACCGACAGCCCUUCUCUGCGGUUGUCUGACUGGACACACUUCCUGAAAUCAGGCCGUUUCCCUCCG | 0.552 |

Set 5
Target: Histone acetyltransferase KAT6A, both winged helices, GST fusion (KAT6A, Homo sapiens, UniProt Q92794, residues 1-181)
Method: protein binding microarray
Form: double-stranded DNA, one strand shown
Sample: in vitro
Concentration: not given
Notes: 8-mer, flanks averaged, mean of 2 arrays, mostly near background
Reference: not given
Reading: higher = stronger binding
Construct (chain): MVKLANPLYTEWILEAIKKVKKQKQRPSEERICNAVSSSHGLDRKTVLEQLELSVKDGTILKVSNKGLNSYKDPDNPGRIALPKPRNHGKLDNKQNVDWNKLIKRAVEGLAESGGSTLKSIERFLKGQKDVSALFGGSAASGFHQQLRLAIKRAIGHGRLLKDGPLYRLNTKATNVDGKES
| Oligonucleotide | E-score |
| --- | --- |
| AGGGGCGA | -0.0213 |
| GGTTAGCA | -0.0429 |
| GGTGATGA | -0.0616 |
| GCATAGGC | -0.0376 |
| CTATCAGA | 0.0351 |
| ATATACCG | 0.188 |
| GGCCTCCC | -0.0689 |
| CTGCTAAC | -0.168 |
| CGTAGGGC | 0.132 |
| TAAAGCCA | -0.0818 |
| ACTCGGGG | 0.0344 |
| CGTCGAAA | 0.19 |
| CTGTTATC | -0.138 |
| ACTCGCGC | 0.327 |
| ATCAGGTA | -0.147 |
| AACCCGTA | 0.244 |
| AGCCTAGG | -0.171 |
| ATGGCACG | 0.1 |
| CAGACAAG | -0.129 |

Repeated from above (set 2):
| Oligonucleotide | E-score |
| --- | --- |
| ATAATTTA | 0.347 |
| CGGATATC | 0.338 |
| CATCCGCC | 0.304 |
| CCGGAACA | 0.4 |
| CACCGGTG | 0.479 |
| ATATGTAC | 0.283 |
| CCCGGCGG | 0.311 |
| GTAGAATA | 0.271 |
| CCGGACGC | 0.272 |
| GCCGGGAC | 0.27 |
| ACCGTCGT | 0.298 |
| ACCGGAGG | 0.358 |
| CCGCCCCA | 0.417 |
